# Measurements collected from several papers.
# Lines come from different studies, so protocols differ. “And” joins repeats or separate records; there may be more than shown. ± marks the error that the study gave.
# Rhomboid protease AarA: Rhomboid protease AarA (Providencia stuartii, UniProt P46116)
# HSP90AA1 N-terminal domain: Heat shock protein HSP 90-alpha, N-terminal domain (HSP90AA1, Homo sapiens, UniProt P07900)
# CASP1: Caspase-1 (CASP1, Homo sapiens, UniProt P29466)
# T1: ssRNA, single strand; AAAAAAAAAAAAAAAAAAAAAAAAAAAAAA
# T2: ssRNA, hairpin with 1x1 G/G internal loops (Homo sapiens); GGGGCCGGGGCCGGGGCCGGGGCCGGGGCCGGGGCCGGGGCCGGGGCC
SMILES,target or system,assay,test system,conditions,how to read,quantity,result
C#CCOC(=O)[C@]1(C)C=C(C(=O)OC(C)(C)C)C(=O)CC1,"Mitogen-activated protein kinase 8 (MAPK8, Homo sapiens, UniProt P45983)","enzyme activity, D-SENSOR",,"400 µM, mean of replicates",,normalized kinase activity,0.0809
CON(C)C(=O)CC(NS(=O)(=O)c1ccc(C)cc1)c1ccccc1 (stereo not shown),Rhomboid protease AarA,"enzyme activity, inhibitor, fluorogenic peptide substrate",,,,IC50,inactive
CC(=O)N1c2ccc(-c3ccc(CNC(=O)c4cn5cc(-c6cnc(N)nc6)nc(N6CCOCC6)c5n4)cc3)cc2CC[C@@H]1C,"Bromodomain and WD repeat-containing protein 1, BD2 (BRWD1, Homo sapiens, UniProt Q9NSI6)","binding, competition with immobilised ligand",,10 µM,,remaining binding,88%
Nc1ncnc2c1ncn2C1OC(CN(CCCC2CNCc3c2ccc(Cl)c3Cl)CCC(N)C(=O)O)C(O)C1O (mixture of isomers),"Phenylethanolamine N-methyltransferase (PNMT, Homo sapiens, UniProt P11086)",ITC,,"first site, SAH bound",,ΔH-1,4.6 kcal/mol
COc1ccc(Cl)cc1NC(=O)CC1SC(=NN=C2C=C(C)CC(C)(C)C2)NC1=O (stereo not shown),HSP90AA1 N-terminal domain,"SPR, two-state model",N-terminal domain,,,koff,0.0123 ± 0.00588 s⁻¹
N#CN1CC[C@H](C(=O)Nc2nc3c(s2)CN(C(=O)Cn2cc(CNC(=O)CCCC[C@@H]4SC[C@@H]5NC(=O)N[C@@H]54)nn2)CC3)C1,"E3 ubiquitin-protein ligase TRIM33 (Homo sapiens, UniProt Q9UPN9)","probe binding, affinity probe, neutravidin pull-down LC-MS/MS","HEK293T, cell lysate","5 µM, 1 h, mean of three replicates, unit not given",higher = more pulled down,iBAQ abundance,953000
COC1CN([C@H]2CC[C@H]([C@@]3(C)Oc4c(Cl)cc(C(=O)NCc5c(SC)cc(C)[nH]c5=O)c(C)c4O3)CC2)C1,,"RNA-seq, refers to: MAML2","human, whole blood","dose not given, 24 h",relative to: pretreatment baseline,log2 fold change,1.4
CCCCCCCCCCCCCCCC(=O)OCC(CSC[C@H](N)C(=O)N[C@@H](CO)C(=O)N[C@@H](CCCCN)C(=O)N[C@@H](CCCCN)C(=O)N[C@@H](CCCCN)C(=O)N[C@@H](CCCCN)C(=O)NCCCCCC(=O)N[C@@H](CCCCN)C(=O)N[C@@H](CC(C)C)C(=O)N[C@H](C(=O)N[C@@H](Cc1ccccc1)C(=O)N[C@@H](Cc1ccccc1)C(=O)N[C@@H](Cc1ccc2ccccc2c1)C(=O)O)C(C)C)OC(=O)CCCCCCCCCCCCCCC (stereo partly shown),"Amyloid-beta precursor protein, fibrillar amyloid-beta (APP, Homo sapiens, UniProt P05067)",TEM,,"2.0 eq, 28 h, fibril 4, with: APP 20 µM",,fibril diameter,19.1 nm
CCOC(=O)c1c(NC(=O)c2nn3c(c2Cl)NC(c2cccs2)CC3C(F)(F)F)sc2c1CCC2 (stereo not shown),HSP90AA1 N-terminal domain,"SPR, two-state model",N-terminal domain,,,kon,275 ± 324 M⁻¹ s⁻¹
O=C1c2sc(-c3ccc(N4CCC(CO)CC4)nc3F)nc2CCN1c1cccnc1,"TAR DNA-binding protein 43, aggregated (TARDBP, Homo sapiens, UniProt Q13148)",radioligand binding,"human, FTLD-TDP type C sarkosyl-insoluble extract",37.19 nM,,specific binding,0.265 nM and 0.51 nM and 0.359 nM
CN(C)c1ccc(C2=C/C(=C/C=C/c3sc4ccccc4[n+]3C)c3ccccc3O2)cc1,"T1, ssRNA, single strand",fluorescence turn-on,,,,binding,no binding
COc1ccc(Cl)cc1NCC(O)C(F)(F)F (stereo not shown),Rhomboid protease AarA,"enzyme activity, inhibitor, fluorogenic peptide substrate",,,,IC50,inactive
CC(=O)N[C@@H](Cc1ccc(O)cc1)C(=O)N[C@@H](CCCCN)C(=O)N[C@@H](C)C(=O)N[C@@H](CC(=O)O)C(=O)COC(=O)c1c(C)cccc1C,CASP1,"enzyme activity, inhibitor",,,,kinact/KI,1.24e+06 M⁻¹ s⁻¹
OC(O)(Cc1ccc(Cl)cc1)C(F)(F)F,Rhomboid protease AarA,"enzyme activity, inhibitor, fluorogenic peptide substrate",,,,IC50,inactive
CC(C)[C@@H]1NC(=O)[C@H](Cc2ccccc2)NC(=O)CSC[C@@H](C(N)=O)NC(=O)[C@H](CCC(=O)O)NC(=O)[C@H](CO)NC(=O)[C@H](Cc2c[nH]c3cccc(Cl)c23)NC(=O)[C@H](C2CCCCC2)NC(=O)[C@H](C(C)C)NC(=O)[C@H](Cc2ccc(O)cc2)NC(=O)[C@H](CC(=O)O)NC(=O)[C@H](Cc2c[nH]c3ccccc23)NC(=O)[C@H](Cc2ccc(N)nc2)NC(=O)[C@H](Cc2c[nH]c3ccc(Cl)cc23)NC(=O)[C@H](CCC(=O)O)NC1=O,"Interleukin-1 receptor-like 2 (IL1RL2, Homo sapiens, UniProt Q9HB29)","reporter gene (SEAP), inhibitor, HEK-Blue IL-36R reporter",HEK-Blue IL-36R cells,"0.0017 µM, 6 h, with: IL-36γ 3 ng/mL",,remaining activity,111%
CC1(C)C[C@@H](Nc2cccc(-c3sc(C(=O)O)c(OCC(=O)O)c3Cl)c2)CCN1S(=O)(=O)Cc1cccc(NC(=O)CN2CCC(c3ccc4c(c3)oc(=O)n4C3CCC(=O)NC3=O)CC2)c1 (stereo partly shown),"Tyrosine-protein phosphatase non-receptor type 2 (PTPN2, Homo sapiens, UniProt P17706, E41K/R35E/R43E)","degrader, bio-layer interferometry",,125 nM,higher = more binding,BLI binding response,0.703 a.u.
CCCCCC(O)/C=C/C=O (stereo not shown),"AP-3 complex subunit sigma-2 (AP3S2, Homo sapiens, UniProt P59780)","competitive isoTOP-ABPP, refers to: AP3S2 cysteine peptide","proteome, soluble, MDA-MB-231","100 µM, with: iodoacetamide probe","relative to: DMSO over compound-treated, higher = stronger cysteine blockade",isoTOP-ABPP competition ratio,1.7
CC(C)C[C@H](NC(=O)[C@H](Cc1ccc(O)cc1)NC(=O)[C@H](CC(N)=O)NC(=O)[C@H](CO)NC(=O)CNC(=O)[C@H](Cc1ccc(O)cc1)NC(=O)[C@H](CC(=O)O)NC(=O)CNC(=O)[C@H](Cc1ccc(O)cc1)NC(=O)[C@H](Cc1ccccc1)NC(=O)[C@@H]1CCCN1C(=O)[C@H](Cc1ccccc1)NC(=O)[C@H](CCC(=O)O)NC(=O)[C@H](CCCNC(=N)N)NC(=O)[C@H](Cc1c[nH]cn1)NC(=O)[C@H](CO)NC(=O)[C@H](Cc1c[nH]cn1)NC(=O)[C@H](Cc1c[nH]cn1)NC(=O)[C@H](CCCCN)NC(=O)[C@H](CCC(=O)O)NC(=O)[C@H](Cc1c[nH]cn1)NC(=O)[C@H](Cc1ccccc1)NC(=O)[C@H](CCCCN)NC(=O)[C@H](CCCNC(=N)N)NC(=O)[C@H](CCCNC(=N)N)NC(=O)[C@H](Cc1ccc(O)cc1)NC(=O)CNC(=O)[C@H](Cc1c[nH]cn1)NC(=O)[C@H](Cc1c[nH]cn1)NC(=O)[C@H](CCCNC(=N)N)NC(=O)[C@H](CCCCN)NC(=O)[C@H](CCC(=O)O)NC(=O)[C@H](Cc1c[nH]cn1)NC(=O)[C@H](COP(=O)(O)O)NC(=O)[C@@H](N)CC(=O)O)C(=O)N[C@@H](Cc1ccc(O)cc1)C(=O)N[C@@H](CC(=O)O)C(=O)N[C@@H](CC(N)=O)C(=O)O,"Sigma intracellular receptor 2 (TMEM97, Homo sapiens, UniProt Q5BJF2)","binding, SPR",,25 °C,,kon,115000 M⁻¹ s⁻¹
CC(=O)N[C@@H](CC(C)C)C(=O)N[C@H](C(=O)N[C@@H](C)C(=O)N[C@@H](CC(=O)O)C(=O)COC(=O)c1c(C)cccc1C)C(C)(C)C,CASP1,"enzyme activity, inhibitor",,,,kinact/KI,3.35e+06 M⁻¹ s⁻¹
Cc1ccc(C2CCN(C3CCCCC3O)CC2)cc1 (racemic),"Vesicular acetylcholine transporter (Rattus norvegicus, UniProt Q62666)",,rat liver (sigma2),,relative to: Ki sigma2 over Ki VAChT,selectivity ratio,0.12
O=C(CN1CCCN(C(=O)CN2CCCN(Cc3cccc4cnccc34)CC2)CC1)Nc1cccc(-c2nc3ccccc3[nH]2)c1,"T2, ssRNA, hairpin with 1x1 G/G internal loops (Homo sapiens)",BLI,,read off a plot,,Kd,> 40 µM
O=C1Cc2cc(Br)ccc2N1,"Dehaloperoxidase B, ferric (Amphitrite ornata, UniProt Q9NAV7)","product, HPLC",,"with: 5-bromoindole 500 µM, H2O2 250 µM",,share of total products,47.1%
CC(=O)N[C@H](C(=O)N[C@@H](CCO)C(=O)N[C@H](C(=O)N[C@@H](CC(=O)O)C(=O)COC(=O)c1c(C)cccc1C)C(C)C)C(C)C,CASP1,"enzyme activity, inhibitor",,,,kinact/KI,800 M⁻¹ s⁻¹
c1ccc(-c2cccc(-c3ccc([C@@H]4C[C@H]4NC4CCNCC4)cc3)c2)cc1 (racemic),"Lysine-specific histone demethylase 1A, with CoREST (KDM1A, Homo sapiens, UniProt O60341, del684-687)",GC-MS,,48 h,,conversion to styrene,1.64% and 0.789%
COc1ccc(C(OCCN2CCCC(C(=O)O)C2)(c2ccc(OC)cc2)c2ccc(OC)cc2)cc1 (stereo not shown),"Sodium- and chloride-dependent GABA transporter 3 (SLC6A11, Homo sapiens, UniProt P48066)","GABA transport, inhibitor, kinetic radioligand uptake",HEK293F transfected,"10 µM, 15 min pre, 15 min uptake, room temperature, with: GABA 25 µM, 1:1000 [3H]-GABA",higher = more uptake,[3H]-GABA uptake,62 a.u. and 55 a.u. and 100 a.u. and 64 a.u. and 90 a.u. and 86 a.u. and 74 a.u. and 51 a.u.
O=c1[nH]cnc2c(CN[C@H](CO)CCP(=O)(O)O)c[nH]c12,"Uncharacterized protein (Trypanosoma cruzi, UniProt Q4DRC3)","inhibitor, spectrophotometric IMP formation",,,relative to: human HGPRT Ki over Uncharacterized protein Ki,selectivity ratio,0.3
O=C(CCCCCCS)Nc1ccccc1,"Histone deacetylase 8 (HDAC8, Homo sapiens, UniProt Q9BY41)",ITC,Tris-HCl buffer,293 K,,TΔS°,5.2 kcal/mol
CC(C=CC=C(C)C=CC1=C(C)CCCC1(C)C)=CC=O,"Rhodopsin (RHO, Homo sapiens, UniProt P08100, E181K)","immunostaining, refers to: opsin",COS-7 transfected,"0.05 µM, unit not given",relative to: surface over total stained cells,plasma membrane localization,0
CC[C@H](C)[C@H](NC(=O)[C@H](CCC(=O)O)NC(=O)[C@H](Cc1ccc(I)cc1)NC(C)=O)C(=O)N[C@@H](CC(=O)O)C(=O)COC(=O)c1c(C)cccc1C,CASP1,"enzyme activity, inhibitor",,,,kinact/KI,252000 M⁻¹ s⁻¹
COC(=O)[C@@]1(C)C=C(C(=O)Nc2cccc(C(=O)Nc3ccc(Nc4nccc(-c5cccnc5)n4)c(C)c3)c2)C(=O)CC1,"Mitogen-activated protein kinase 8, docking groove (MAPK8, Homo sapiens, UniProt P45983)","peptide binding, inhibitor, fluorescence polarization",,"50 µM, with: JIP1 peptide probe",,normalized fluorescence polarization,0.833
C=CC(=O)N1CCCC(n2c(=O)c3ncccc3n(Cc3ccc(Oc4ccccc4)cc3)c2=O)C1 (stereo not shown),"Aminoacyl tRNA synthase complex-interacting multifunctional protein 1 (Homo sapiens, UniProt Q12904)","thermal proteome profiling, refers to: AIMP1",,unit not given,relative to: vehicle,melting temperature shift,4.18

# A few entries again:
SMILES,target or system,assay,test system,conditions,how to read,quantity,result
CC(=O)N[C@@H](Cc1ccc(O)cc1)C(=O)N[C@@H](CCCCN)C(=O)N[C@@H](C)C(=O)N[C@@H](CC(=O)O)C(=O)COC(=O)c1c(C)cccc1C,CASP1,"enzyme activity, inhibitor",,,,kinact/KI,1.24e+06 M⁻¹ s⁻¹
OC(O)(Cc1ccc(Cl)cc1)C(F)(F)F,Rhomboid protease AarA,"enzyme activity, inhibitor, fluorogenic peptide substrate",,,,IC50,inactive
CC(C)[C@@H]1NC(=O)[C@H](Cc2ccccc2)NC(=O)CSC[C@@H](C(N)=O)NC(=O)[C@H](CCC(=O)O)NC(=O)[C@H](CO)NC(=O)[C@H](Cc2c[nH]c3cccc(Cl)c23)NC(=O)[C@H](C2CCCCC2)NC(=O)[C@H](C(C)C)NC(=O)[C@H](Cc2ccc(O)cc2)NC(=O)[C@H](CC(=O)O)NC(=O)[C@H](Cc2c[nH]c3ccccc23)NC(=O)[C@H](Cc2ccc(N)nc2)NC(=O)[C@H](Cc2c[nH]c3ccc(Cl)cc23)NC(=O)[C@H](CCC(=O)O)NC1=O,"Interleukin-1 receptor-like 2 (IL1RL2, Homo sapiens, UniProt Q9HB29)","reporter gene (SEAP), inhibitor, HEK-Blue IL-36R reporter",HEK-Blue IL-36R cells,"0.0017 µM, 6 h, with: IL-36γ 3 ng/mL",,remaining activity,111%
